Results pooled from the literature.
Each line is one published result; not all experiments were run side by side. “And” joins repeats or separate records; there may be more than shown. ± gives the spread as reported.
MT-CYB/UQCRFS1: MT-CYB/UQCRFS1 (Homo sapiens, UniProt P00156+P47985)
Chain of UniProt P00156 (whole entry, looked up): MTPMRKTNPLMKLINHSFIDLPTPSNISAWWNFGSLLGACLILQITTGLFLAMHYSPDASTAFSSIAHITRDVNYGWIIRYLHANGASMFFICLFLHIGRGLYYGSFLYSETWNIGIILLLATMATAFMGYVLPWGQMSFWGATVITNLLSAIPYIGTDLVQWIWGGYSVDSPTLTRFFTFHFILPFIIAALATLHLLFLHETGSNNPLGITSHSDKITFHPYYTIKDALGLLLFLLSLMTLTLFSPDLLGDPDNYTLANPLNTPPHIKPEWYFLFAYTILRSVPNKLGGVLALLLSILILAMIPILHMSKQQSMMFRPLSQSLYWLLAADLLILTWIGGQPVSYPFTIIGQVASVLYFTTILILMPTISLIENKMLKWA
Chain of UniProt P47985 (whole entry, looked up): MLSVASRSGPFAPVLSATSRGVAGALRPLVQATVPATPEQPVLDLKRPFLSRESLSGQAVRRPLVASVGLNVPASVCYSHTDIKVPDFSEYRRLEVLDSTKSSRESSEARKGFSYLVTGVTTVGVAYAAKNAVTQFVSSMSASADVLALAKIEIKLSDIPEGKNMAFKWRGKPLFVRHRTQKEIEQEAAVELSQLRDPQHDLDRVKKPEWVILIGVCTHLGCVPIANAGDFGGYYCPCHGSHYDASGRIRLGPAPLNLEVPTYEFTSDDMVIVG
Dehaloperoxidase B ferric: Dehaloperoxidase B, ferric (Amphitrite ornata, UniProt Q9NAV7)
KEAP1 Kelch domain: Kelch-like ECH-associated protein 1, Kelch domain (KEAP1, Homo sapiens, UniProt Q14145)
Chain of UniProt Q16774 (whole entry, unmodified, looked up): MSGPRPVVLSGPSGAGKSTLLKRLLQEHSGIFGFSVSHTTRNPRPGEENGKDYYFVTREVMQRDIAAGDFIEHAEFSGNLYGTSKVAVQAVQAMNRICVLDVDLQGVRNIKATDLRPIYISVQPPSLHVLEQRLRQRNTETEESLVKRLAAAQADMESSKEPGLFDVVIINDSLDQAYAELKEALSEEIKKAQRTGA
Chain of UniProt Q64663 (whole entry, unmodified, looked up): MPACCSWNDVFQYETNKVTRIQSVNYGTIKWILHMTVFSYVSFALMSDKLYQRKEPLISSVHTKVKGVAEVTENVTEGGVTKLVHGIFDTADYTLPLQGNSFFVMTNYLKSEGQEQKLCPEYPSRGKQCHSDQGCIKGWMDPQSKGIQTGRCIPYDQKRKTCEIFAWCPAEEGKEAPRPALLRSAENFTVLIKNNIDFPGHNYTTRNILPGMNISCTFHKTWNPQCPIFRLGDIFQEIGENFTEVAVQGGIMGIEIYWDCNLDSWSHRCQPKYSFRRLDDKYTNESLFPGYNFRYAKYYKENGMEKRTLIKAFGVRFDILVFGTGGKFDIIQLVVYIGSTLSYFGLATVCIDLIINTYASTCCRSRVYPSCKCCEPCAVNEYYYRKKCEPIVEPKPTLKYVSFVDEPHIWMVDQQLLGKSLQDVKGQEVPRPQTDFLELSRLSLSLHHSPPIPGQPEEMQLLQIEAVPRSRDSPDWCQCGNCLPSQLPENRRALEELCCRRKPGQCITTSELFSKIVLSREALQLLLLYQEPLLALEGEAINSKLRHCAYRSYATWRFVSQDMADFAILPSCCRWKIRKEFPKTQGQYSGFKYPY
Chain of UniProt Q14145 (whole entry, looked up): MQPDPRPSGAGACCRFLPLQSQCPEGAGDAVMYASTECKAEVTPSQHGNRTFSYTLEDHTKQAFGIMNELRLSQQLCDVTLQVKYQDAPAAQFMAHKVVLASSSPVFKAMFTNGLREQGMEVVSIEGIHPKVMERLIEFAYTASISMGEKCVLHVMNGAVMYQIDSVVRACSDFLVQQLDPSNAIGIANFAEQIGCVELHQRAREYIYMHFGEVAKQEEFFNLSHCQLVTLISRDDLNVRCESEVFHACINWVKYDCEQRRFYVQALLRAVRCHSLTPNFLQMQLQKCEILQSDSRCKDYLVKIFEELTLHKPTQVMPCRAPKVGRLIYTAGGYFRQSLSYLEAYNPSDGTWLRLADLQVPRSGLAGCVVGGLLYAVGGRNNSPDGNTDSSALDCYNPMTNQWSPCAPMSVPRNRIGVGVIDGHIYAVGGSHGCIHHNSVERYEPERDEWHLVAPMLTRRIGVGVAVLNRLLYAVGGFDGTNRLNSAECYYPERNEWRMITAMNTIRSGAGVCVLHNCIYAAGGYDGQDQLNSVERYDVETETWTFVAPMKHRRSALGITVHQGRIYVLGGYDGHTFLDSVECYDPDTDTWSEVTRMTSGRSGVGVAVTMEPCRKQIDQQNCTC
Chain of UniProt Q62351 (whole entry, looked up): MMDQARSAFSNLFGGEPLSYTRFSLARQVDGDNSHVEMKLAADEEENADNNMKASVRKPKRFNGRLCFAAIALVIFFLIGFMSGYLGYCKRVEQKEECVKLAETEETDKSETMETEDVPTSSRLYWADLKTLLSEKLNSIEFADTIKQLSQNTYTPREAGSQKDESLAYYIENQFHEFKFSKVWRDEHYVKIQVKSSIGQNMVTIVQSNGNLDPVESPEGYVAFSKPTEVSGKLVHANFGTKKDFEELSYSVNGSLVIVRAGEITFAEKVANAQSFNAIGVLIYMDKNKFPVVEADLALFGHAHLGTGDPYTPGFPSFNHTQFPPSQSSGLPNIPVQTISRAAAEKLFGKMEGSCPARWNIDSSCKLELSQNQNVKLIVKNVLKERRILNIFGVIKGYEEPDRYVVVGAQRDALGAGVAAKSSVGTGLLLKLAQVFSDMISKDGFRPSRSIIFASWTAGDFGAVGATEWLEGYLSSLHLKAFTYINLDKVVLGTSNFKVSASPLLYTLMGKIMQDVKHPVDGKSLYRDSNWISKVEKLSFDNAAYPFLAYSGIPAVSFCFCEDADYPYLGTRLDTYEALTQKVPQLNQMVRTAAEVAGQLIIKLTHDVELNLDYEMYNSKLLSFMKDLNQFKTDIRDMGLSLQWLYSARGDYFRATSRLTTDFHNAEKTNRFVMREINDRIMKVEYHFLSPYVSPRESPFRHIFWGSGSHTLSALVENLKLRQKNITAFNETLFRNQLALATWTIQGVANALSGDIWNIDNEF
Chain of UniProt P06396 (whole entry, looked up): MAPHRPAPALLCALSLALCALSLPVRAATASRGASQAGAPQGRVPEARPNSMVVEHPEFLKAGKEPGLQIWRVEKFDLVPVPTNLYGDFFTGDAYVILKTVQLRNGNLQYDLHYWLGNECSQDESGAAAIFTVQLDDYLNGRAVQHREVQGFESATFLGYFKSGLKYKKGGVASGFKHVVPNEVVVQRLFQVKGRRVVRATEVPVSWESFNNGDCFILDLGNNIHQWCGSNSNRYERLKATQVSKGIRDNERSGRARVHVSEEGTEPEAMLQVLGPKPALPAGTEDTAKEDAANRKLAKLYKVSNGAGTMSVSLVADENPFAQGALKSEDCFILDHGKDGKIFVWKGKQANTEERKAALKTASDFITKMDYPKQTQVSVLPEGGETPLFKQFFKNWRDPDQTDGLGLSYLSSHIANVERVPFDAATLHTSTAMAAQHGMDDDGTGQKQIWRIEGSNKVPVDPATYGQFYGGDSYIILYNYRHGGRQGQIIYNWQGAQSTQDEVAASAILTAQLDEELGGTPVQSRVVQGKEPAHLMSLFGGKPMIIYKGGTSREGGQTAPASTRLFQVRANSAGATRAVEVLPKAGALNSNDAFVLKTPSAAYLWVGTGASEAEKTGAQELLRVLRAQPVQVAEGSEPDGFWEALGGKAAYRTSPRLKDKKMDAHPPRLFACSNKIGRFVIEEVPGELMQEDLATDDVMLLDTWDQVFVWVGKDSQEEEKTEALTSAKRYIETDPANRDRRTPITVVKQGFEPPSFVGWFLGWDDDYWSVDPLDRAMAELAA
Chain of UniProt Q8K3Y3 (whole entry, looked up): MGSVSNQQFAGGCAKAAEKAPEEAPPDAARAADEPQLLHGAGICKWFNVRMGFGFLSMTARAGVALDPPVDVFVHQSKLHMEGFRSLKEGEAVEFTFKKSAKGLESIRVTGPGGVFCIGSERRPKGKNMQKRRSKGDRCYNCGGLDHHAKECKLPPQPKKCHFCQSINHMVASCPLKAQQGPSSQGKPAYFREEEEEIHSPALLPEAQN
Chain of UniProt P16442 (whole entry, unmodified, looked up): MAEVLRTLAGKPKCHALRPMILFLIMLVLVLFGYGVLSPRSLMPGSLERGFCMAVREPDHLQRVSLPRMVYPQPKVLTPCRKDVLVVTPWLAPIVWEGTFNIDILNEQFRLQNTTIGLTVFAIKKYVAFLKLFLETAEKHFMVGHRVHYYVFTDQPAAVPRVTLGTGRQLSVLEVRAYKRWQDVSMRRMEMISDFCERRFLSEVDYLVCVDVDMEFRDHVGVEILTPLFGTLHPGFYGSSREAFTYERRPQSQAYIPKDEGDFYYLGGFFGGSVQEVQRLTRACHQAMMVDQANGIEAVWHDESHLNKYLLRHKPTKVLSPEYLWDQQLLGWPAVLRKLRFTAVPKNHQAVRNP
Chain of UniProt P14618 (whole entry, looked up): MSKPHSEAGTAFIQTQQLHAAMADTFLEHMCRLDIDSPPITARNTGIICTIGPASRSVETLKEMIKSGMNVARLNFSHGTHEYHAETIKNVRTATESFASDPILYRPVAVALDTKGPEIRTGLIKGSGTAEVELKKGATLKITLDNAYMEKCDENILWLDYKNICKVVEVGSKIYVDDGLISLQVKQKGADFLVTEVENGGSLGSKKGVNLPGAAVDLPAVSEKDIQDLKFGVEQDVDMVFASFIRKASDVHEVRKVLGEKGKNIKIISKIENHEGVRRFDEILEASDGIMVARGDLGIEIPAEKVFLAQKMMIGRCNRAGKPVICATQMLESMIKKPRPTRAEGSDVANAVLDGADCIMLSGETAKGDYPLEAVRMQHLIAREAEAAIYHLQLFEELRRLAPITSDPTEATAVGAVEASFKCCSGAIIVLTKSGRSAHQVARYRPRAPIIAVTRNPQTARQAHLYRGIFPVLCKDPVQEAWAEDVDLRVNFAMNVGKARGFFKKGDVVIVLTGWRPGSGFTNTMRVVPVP
Chain of UniProt Q04917 (whole entry, looked up): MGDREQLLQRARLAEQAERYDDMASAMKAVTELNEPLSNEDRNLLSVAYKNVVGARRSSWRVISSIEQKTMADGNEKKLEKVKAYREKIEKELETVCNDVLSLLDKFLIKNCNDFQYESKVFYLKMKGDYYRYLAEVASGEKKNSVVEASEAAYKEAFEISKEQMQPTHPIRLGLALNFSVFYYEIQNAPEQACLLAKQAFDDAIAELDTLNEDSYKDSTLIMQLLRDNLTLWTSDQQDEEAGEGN

SMILES | target | test | system | setting | how to read | measurement | value
NC(=O)NO | MT-CYB/UQCRFS1 | complex III-dependent respiration, Seahorse XF96 | HCT-116 | 250 µM, 24 h | relative to: control | oxygen consumption rate | 89.1 ± 9.82%
CN(C)C(=O)C(CCN1CCC(O)(c2ccc(Cl)cc2)CC1)(c1ccccc1)c1ccccc1 | Calcium-activated potassium channel subunit alpha-1, with LRRC26 γ1 subunit (KCNMA1, Homo sapiens, UniProt Q12791) | BK current, inhibitor, inside-out patch clamp | excised membrane patch | 0.3 µM, γ1 coexpressed, individual fits, together with: nominally 0 Ca2+ cytosolic | relative to: without loperamide | normalized Gmax | 0.806 ± 0.039
O=C1C=Nc2ccc(Br)cc21 | Dehaloperoxidase B ferric | product, HPLC | – | together with: 5-bromoindole 500 µM, H2O2 250 µM | – | share of total products | 43.9%
CN1CCN(c2cc(-c3ccncc3)c(-c3ccc4ccccc4c3)nn2)CC1 | Follicle-stimulating hormone receptor (FSHR, Homo sapiens, UniProt P23945) | agonist, FLIPR | – | 12.5 µM | – | activation | -1.7%
O=c1nc(SCc2ccc(C(F)(F)F)cc2)nc(SCc2csc3ccc(Cl)cc23)[nH]1 | DNA topoisomerase 2-alpha (TOP2A, Homo sapiens, UniProt P11388) | DNA relaxation | – | 1.95 µM | – | mean relaxed DNA | 93.2%
O=C(COP(=O)(O)O)[C@@H](O)[C@H](O)[C@H](O)COP(=O)(O)O | 14-3-3 protein eta (Homo sapiens, UniProt Q04917) | thermal proteome profiling, item: YWHAH | HepG2 cell lysate | concentration not given, 57 over 37 °C, mean | relative to: compound over control | thermal stability ratio | 0.567
O=C(COP(=O)(O)O)[C@@H](O)[C@H](O)[C@H](O)COP(=O)(O)O | Pyruvate kinase PKM (PKM, Homo sapiens, UniProt P14618) | enzyme activity, activator | – | – | – | concentration for maximal activation | 732 ± 170 nM
O=C1Nc2ccc(Br)cc2C1O (stereo not drawn) | Dehaloperoxidase B ferric | product, HPLC | – | together with: 5-bromoindole 500 µM, H2O2 500 µM | – | share of total products | 3.9%
CC(C)C[C@@H](C=O)NC(=O)[C@H](CC(C)C)NC(=O)[C@H](CC(C)C)NC(=O)OCc1ccccc1 | Protein transport protein Sec61 subunit alpha isoform 1 (Homo sapiens, UniProt P61619) | Sec61-dependent translocation, inhibitor, item: CD4 signal peptide-FLuc reporter | HEK293 | concentration not given, 6 h | – | FLuc/RLuc ratio | 0.276
NCCCC(=O)O | Sodium- and chloride-dependent taurine transporter (SLC6A6, Homo sapiens, UniProt P31641, Y138A) | binding, microscale thermophoresis | – | 500 µM, room temperature, together with: 50 nM labelled protein | higher = more binding | normalised MST signal | -0.00232
Cc1ccc(S(=O)(=O)Nc2ccc(C)cc2NS(=O)(=O)c2cccc(C(F)(F)F)c2)cc1 | Protein lin-28 homolog A (Mus musculus, UniProt Q8K3Y3) | – | – | – | – | Hill slope | -0.8
CCCCC[C@H](O)/C=C/[C@H]1[C@H](O)CC(=O)[C@@H]1C/C=C\CCCC(=O)O | Prostaglandin E2 receptor EP1 subtype (PTGER1, Homo sapiens, UniProt P34995, G92A/P39A) | IP1 accumulation, agonist | AD293 | 1 h | relative to: wild type receptor | Emax | 98.3 ± 4.22%
NC(=O)NOCCCCCCCCCCCCCCCCCCCC[P+](c1ccccc1)(c1ccccc1)c1ccccc1.O=C([O-])C(F)(F)F | MT-CYB/UQCRFS1 | complex III-dependent respiration, Seahorse XF96 | HCT-116 | 0.1 µM, 24 h | relative to: control | oxygen consumption rate | 107%
CCCN(O)N=Nc1ccc(S(=O)(=O)Nc2cc(C)on2)cc1 | α-glucosidase, rat intestine | enzyme activity | – | 60 µg/mL, together with: 4-nitrophenyl α-D-glucopyranoside | – | inhibition | 22.5 ± 0.16%
Cc1ccc(N2CC(C(N)=O)CC2=O)cc1 (stereo not drawn) | YTH domain-containing family protein 2 (YTHDF2, Homo sapiens, UniProt Q9Y5A9) | binding, affinity selection mass spectrometry | – | – | relative to: other proteins in batch | log fold enrichment | 0
NC(=O)NOCCCCCCCCCCCCCCCC[P+](c1ccccc1)(c1ccccc1)c1ccccc1.O=C([O-])C(F)(F)F | MT-CYB/UQCRFS1 | complex III-dependent respiration, Seahorse XF96 | HCT-116 | 3 µM, 24 h | relative to: control | oxygen consumption rate | 63.1%
Nc1nc2c(ncn2[C@@H]2O[C@H](COP(=O)(O)O)[C@@H](O)[C@H]2O)c(=O)[nH]1 | GUK1 (Homo sapiens, UniProt Q16774, T83A) | enzyme activity, NADH-coupled | – | 125 µM | – | reaction rate | 20.6 s⁻¹ and 17.9 s⁻¹ and 16.4 s⁻¹
c1coc(CNc2ncnc3nc[nH]c23)c1 | Gelsolin, peptide (GSN, Homo sapiens, UniProt P06396) | amyloid aggregation, ThT fluorescence | – | 100 µM, 12 h, 37 °C, inhibitor to peptide 1:1 molar | relative to: untreated | remaining fluorescence | 48%
CCCC[C@H]1C(=O)N(C)[C@@H](CCCC)C(=O)N[C@@H](CCCCNC(=O)CN2CCN(CC(=O)O)CCN(CC(=O)O)CC2)C(=O)N[C@H](C(=O)NCC(N)=O)CSCC(=O)N[C@@H](Cc2ccc(O)cc2)C(=O)N(C)[C@@H](C)C(=O)N[C@@H](CC(N)=O)C(=O)N2CCC[C@H]2C(=O)N[C@@H](Cc2c[nH]cn2)C(=O)N[C@@H](CCC(=O)O)C(=O)N2C[C@H](O)C[C@H]2C(=O)N[C@@H](Cc2c[nH]c3ccccc23)C(=O)N[C@@H](CO)C(=O)N[C@@H](Cc2cn(CC(=O)O)c3ccccc23)C(=O)N1C [gallium-68 labelled] | Programmed cell death 1 ligand 1 (CD274, Homo sapiens, UniProt Q9NZQ7) | – | U-87 MG | 60 min | – | cell uptake | 28.1%
CCc1cnn2c(NCc3ccc[n+]([O-])c3)cc(N3CCCC[C@H]3CCO)nc12 | Bromodomain-containing protein 4 (BRD4, Homo sapiens, UniProt O60885) | 19F NMR, item: tyrosine 118 | – | 47 µM | relative to: free protein | chemical shift change | -0.015 ppm
Cc1cc2c(cc1N1C(=O)c3cccc4c(Cl)ccc(c34)C1=O)n(C)c(=O)n2C | Peregrin, isoform A (BRPF1, Homo sapiens, UniProt P55201) | thermal shift | – | 10 µM | – | ΔTm | -0.4 °C
Cc1ccc(N(O)N=Nc2ccc(S(=O)(=O)Nc3onc(C)c3C)cc2)cc1 | α-glucosidase, rat intestine | enzyme activity | – | 120 µg/mL, together with: 4-nitrophenyl α-D-glucopyranoside | – | inhibition | 17.5 ± 0.013%
CC[C@H](C)[C@H](NC(=O)[C@@H]1CCCN1C(=O)[C@H](CC(C)C)NC(=O)[C@H](Cc1ccccc1)NC(=O)[C@H](CCC(=O)O)NC(=O)CNC(=O)[C@@H](NC(=O)[C@H](CCC(=O)O)NC(=O)[C@@H]1CCCN1C(=O)[C@H](CC(=O)O)NC(=O)[C@H](CC(C)C)NC(=O)[C@H](CCC(N)=O)NC(=O)[C@H](CC(C)C)NC(=O)[C@H](CCC(N)=O)NC(=O)[C@H](C)NC(=O)[C@H](Cc1ccccc1)NC(C)=O)[C@@H](C)O)C(=O)N[C@@H](CCC(N)=O)C(=O)N1CCC[C@H]1C(=O)N[C@@H](C)C(=O)N[C@@H](CCC(N)=O)C(N)=O | KEAP1 Kelch domain | binding, ITC | – | pH 7, 298.15 K | – | ΔG | -11.28 ± 0.04 kcal/mol
O=c1ccn([C@@H]2O[C@H](COP(=O)(O)OP(=O)(O)O)[C@@H](O)[C@H]2O)c(=O)[nH]1 | Histo-blood group ABO system transferase (ABO, Homo sapiens, UniProt P16442, G235S/G268A/L266M/R176G/W181E) | methyl-TROSY NMR titration lineshape analysis | – | apo mutant enzyme | – | koff | 1700 ± 70 s⁻¹
CC[C@@H]1[C@H](F)C(=O)N[C@@H]1COc1nccc2cc(C(N)=O)c(OC)cc12 | Serine/threonine-protein kinase OSR1 (OXSR1, Homo sapiens, UniProt O95747) | ATP-site probe binding, ActivX profiling, item: OSR1 | THP-1 cell lysate | 0.04 mM, Lys2 site | – | inhibition | -9.1%
CCn1c(-c2nc3cc(C(=O)N4CCC[C@@H](N)C4)cc(OC)c3n2C)cc2cccnc21 | Protein-arginine deiminase type-3 (PADI3, Homo sapiens, UniProt Q9ULW8) | mixed inhibitor | – | together with: BAEE substrate, 10 mM CaCl2 | – | Ki' | 9 ± 6.8 mM
CC(=C/C(=O)O)/C=C/C=C(\C)C1C=C2C(C)(C)CCCC2(C)O1 (stereo not drawn) | Rhodopsin (RHO, Homo sapiens, UniProt P08100, P23H) | immunostaining, item: opsin | COS-7 transfected | 0.05 µM, unit not given | relative to: surface over total stained cells | plasma membrane localization | 0
CC(=O)N[C@@H](C)C(=O)N[C@@H](CC(N)=O)C(=O)NCC(=O)N[C@@H](CC(N)=O)C(=O)N[C@@H](C)C(=O)N[C@@H](CC(N)=O)C(=O)N[C@@H](CCC(=O)O)C(=O)N[C@@H](CCC(=O)O)C(=O)N[C@@H](CC(N)=O)C(=O)NCC(=O)N[C@@H](CCC(=O)O)C(=O)N[C@@H](CCC(N)=O)C(=O)N[C@@H](CCC(=O)O)C(=O)N[C@@H](C)C(=O)N[C@@H](CC(=O)O)C(=O)N[C@@H](CC(N)=O)C(=O)N[C@@H](CCC(=O)O)C(=O)N[C@H](C(=O)N[C@@H](CC(=O)O)C(N)=O)C(C)C | KEAP1 Kelch domain | binding, ITC | – | pH 7, 298.15 K | – | TΔS | -10.1 kcal/mol
CC[C@@H](C)[C@@H](NC(=O)[C@@H](Cc1ccc(O)cc1)NC(=O)[C@H]1CCCN1C(=O)[C@@H](CCCNC(=N)N)NC(=O)[C@H](N)Cc1c[nH]cn1)C(=O)N[C@H](C)C(=O)N[C@H](Cc1c[nH]cn1)C(=O)N[C@H](CCCNC(=N)N)C(=O)N[C@@H](C(=O)N[C@H](Cc1ccc(O)cc1)C(=O)N[C@H](CO)C(=O)N[C@H](Cc1ccccc1)C(N)=O)C(C)C | Transferrin receptor protein 1 (Tfrc, Mus musculus, UniProt Q62351) | flow cytometry | DC2.4 | 2 h, pH 7.4, unit not given | relative to: 0 h | surface expression | 0.839 and 0.923
Nc1ncnc2c1ncn2[C@@H]1O[C@H](COP(=O)(O)OP(=O)(O)OP(=O)(O)O)[C@@H](O)[C@H]1O | P2X purinoceptor 7 (P2rx7, Rattus norvegicus, UniProt Q64663, I214A/Q143A/R125A) | ion current, agonist, two-electrode voltage clamp | Xenopus laevis oocytes | 100 µM, triple mutant | relative to: 100 µM compound response | normalized current | 1

Repeated from above:
SMILES | target | test | system | setting | how to read | measurement | value
CN1CCN(c2cc(-c3ccncc3)c(-c3ccc4ccccc4c3)nn2)CC1 | Follicle-stimulating hormone receptor (FSHR, Homo sapiens, UniProt P23945) | agonist, FLIPR | – | 12.5 µM | – | activation | -1.7%
CC(=C/C(=O)O)/C=C/C=C(\C)C1C=C2C(C)(C)CCCC2(C)O1 (stereo not drawn) | Rhodopsin (RHO, Homo sapiens, UniProt P08100, P23H) | immunostaining, item: opsin | COS-7 transfected | 0.05 µM, unit not given | relative to: surface over total stained cells | plasma membrane localization | 0
